Results from different studies.
Compare with care: the assays were run in different laboratories. Several values in a cell are separate wells, animals, samples, runs or records.
Target: Tyrosine-protein kinase Fgr (FGR, Homo sapiens, UniProt P09769)

`Cc1cccc(O[C@H]2CCC[C@@H](C(C)CNCc3ccncc3)C2)c1` (relative stereo) has an inhibition of -10% (cell-free assay, inhibitor; 10 µM).
With `C=CC(=O)N1Cc2nc(-c3cc(-c4cc(Cl)cnc4Cl)c(F)cc3F)n(-c3ccncn3)c2C1` the inhibition was 6.8% (cell-free assay, inhibitor; 1 µM).
With `CN1CCN(Cc2ccc(-c3ccc(CO[C@H]4CCC[C@@H]4NC(=O)c4cc(-c5cnn(C)c5)cnc4N)cc3)cc2)CC1` the inhibition was -1% (enzyme activity, inhibitor; 0.1 µM).
`O=C=[N][Ru-4]123([n]4c5ccc(O)cc5c5c6c(c7cc(F)c[n+]1c7c54)C(=O)NC6=O)[S+]1CC[S+]2CC[S+]3CC1` (stereo not drawn) gave a remaining activity of 81% (enzyme activity; 100 nM, human enzyme, together with: 10 µM ATP; reference: untreated).
With `COCC12C(=O)NC3C4(C(OC)CC1O)C1CC5(O)C(OC)C(O)C(OC(C)=O)(C1C5OC(=O)c1ccccc1)C3(O)C(OC)C24` (stereo not drawn) the remaining activity was 111% and 85% (kinase activity, inhibitor, ProQinase kinase profiling; 25 µM; reference: control).
For `Nc1ncc(-c2cc(-c3cnn(CC(F)(F)F)c3)ncc2F)nc1C(=O)NC1CNCC(F)C1` (stereo not drawn), the remaining activity was 83.3% (enzyme activity; 1 µM; reference: DMSO control).
`CNC(=O)C1CCN(c2cc(C)c(F)cc2NC(=O)c2ccc(-c3cc(O)ccc3C)c(C)c2)CC1` gave a remaining binding of 1.5% (binding, competition with immobilised ligand; 1 µM).
Under “activity vs control”, `O=C(Cc1ccc(OCc2ccccc2)cc1)NC1(C(=O)O)CCN(C(=O)c2ccc(-c3cccc(Cl)c3)cc2)CC1` is recorded as 115% (enzyme activity, inhibitor; 10 µM).
The remaining signal of `Cc1cnc2nc1Nc1cccc(c1)COC/C=C/COCc1cc(ccc1OCCN1CCOCC1)N2` is reported as 81% (cell-free assay; 0.1 µM).
With `COc1c(Cl)cccc1Nc1c(-c2ccncc2C#C[C@@]2(C)CCCN2C(=O)/C=C/CN(C)C)[nH]c2c1C(=O)NCC2` the remaining binding was 55% (cell-free assay, competition with immobilised ligand; 3 µM).
With `COc1c(OCCCN2CCOCC2)ccc2c1N=C(NC(=O)c1cnc(N)nc1)N1CCN=C21` the remaining activity was 76% (kinase activity, inhibitor; 1 µM; reference: untreated control).
`NC(=O)[C@@H](O)C[C@H]1CCc2sc3ncnc(O[C@H]4CC[C@H](N5CCOCC5)CC4)c3c21` has an inhibition of 71% (enzyme activity, inhibitor, radiometric; 10 µM).
For `CCN1CCN(Cc2ccc(NC(=O)c3ccc(C)c(NC(=O)c4cncc(-c5cccs5)c4)c3)cc2C(F)(F)F)CC1`, the remaining binding was 0.45% (binding, competition with immobilised ligand; 1 µM).
For `C=CC(=O)Nc1cccc(-c2cnc3[nH]cc(C(=O)NC(C)(C)C)c3n2)c1`, the inhibition was 4% (enzyme activity, inhibitor; 0.1 µM).
The remaining binding of `Cc1ccc(-c2c(/C=C(\C#N)C(=O)NC(C)C)n(CCCO)c3ncnc(N)c23)cc1` is reported as 52% (cell-free assay, competition with immobilised ligand; 1 µM).

A few entries again:
`NC(=O)[C@@H](O)C[C@H]1CCc2sc3ncnc(O[C@H]4CC[C@H](N5CCOCC5)CC4)c3c21` has an inhibition of 71% (enzyme activity, inhibitor, radiometric; 10 µM).
For `CCN1CCN(Cc2ccc(NC(=O)c3ccc(C)c(NC(=O)c4cncc(-c5cccs5)c4)c3)cc2C(F)(F)F)CC1`, the remaining binding was 0.45% (binding, competition with immobilised ligand; 1 µM).
